Results of several laboratories.
Each numbered part is a random draw from the data of one study; scales do not carry over between parts. Substitutions count along the parent as printed.

Set 1 — technique: DHFR PCA, deep sequencing; medium: yeast; added: (+)-ABA 0.11 µM; reference: wild-type fitted maximum; direction: higher = stronger binding
Target: ABI1, truncated, D143A, DHFR fusion (Arabidopsis thaliana)
Notes: methotrexate growth selection, single substitutions
Starting sequence: PYL1, truncated, DHFR fusion (Arabidopsis thaliana); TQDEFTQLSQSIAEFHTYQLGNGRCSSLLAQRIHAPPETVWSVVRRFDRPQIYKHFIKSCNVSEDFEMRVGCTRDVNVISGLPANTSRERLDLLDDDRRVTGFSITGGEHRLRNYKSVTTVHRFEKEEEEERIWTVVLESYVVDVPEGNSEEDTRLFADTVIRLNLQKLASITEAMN
For `K54S`, “relative binding score” read -0.492%.
For `I79W`, “relative binding score” read 21.9%.
`F103A` — result for “relative binding score”: -2.78%.
`E125V`: “relative binding score” 48.9%.
`F103K` — result for “relative binding score”: -8.81%.
Under “relative binding score”, `S9F` is recorded as 4.45%.
`R32P`: “relative binding score” 0.451%.
`S27Q`: “relative binding score” 2.36%.

Set 2 — technique: RNA Bind-n-Seq; molecule type: RNA; medium: in vitro; tested at: 365 nM; reference: no-protein control; direction: higher = stronger binding
Target: RNA binding protein fox-1 homolog 2, RRM domain, GST-SBP tag (RBFOX2, Homo sapiens, UniProt O43251-10, residues 100-194)
Notes: natural RNA segment, single round, ends assumed
Constant ends, left off below: GGGAGUUCUACAGUCCGACGAUC … UGGAAUUCUCGGGUGCCAA
For `AUGUCACUGCUGCACUCGCUAAGCAGGGCUUGUGAUAUUUCUCAUUUAGCAUUGAAAUAAUAAUAUUUAGGCAUGAGCUCUUGGCAGGAGUGGGCUCUGAGCAGUUGUUA`, “RBNS enrichment (R)” read 1.37.
Under “RBNS enrichment (R)”, `AAAAAAAAAUGGUGGCUUCAGCUCCAGCCCCUUUCCAAAAUUUUUCAACCCCACCCUGUUUGGAUUUUUAAUUAAAAUCUAGUAGUUCUCUUGGUAUUAAAACACUUCUG` is recorded as 1.01.
`GGUCUUGAACAACUGCCUCACUCUAUAGCCCAAGUUAUCUAGGUCUGAUAGUUGGGAUAAAGGGCUCAGCUCAGUUUACCUGUUACAAUUCAUAGUAUAUUGUUGUUUGU` — result for “RBNS enrichment (R)”: 0.449.
`UAAACUGUGAACUCUGCCCAUGUGUCAGGAGUGGCUGUCUCUGGUCUCUUCCUUUAGCUGACAAGGACACUCCUGAGGUCUUUGUUCUCACUGUAUUCUUUUUAUCCUGG`: “RBNS enrichment (R)” 0.652.
Under “RBNS enrichment (R)”, `GCCACCCCUUCCUCUUCCGAUUCUCCUAGCAGCCACUCAGAGAUAAUUUAAUUCCAGAUUGGAAACGCCCUUUUAGUUUAUCAGAUUGGUAACUUACAUCCUGCUGCCCA` is recorded as 0.643.
For `UCCGAUUUGCCAUCGAAAAAGACAACCUCUACUUUUUUCUUUUGUAUUUUGAUAAACACUGAAGCUGGAGCUGUUAAAUUUAUCUUGGGGAAACCUCAGAACUGGUCUAU`, “RBNS enrichment (R)” read 0.557.
For `AUAAUGUAUGUACCUUUUCCAGACUGAAGUUCAAAGAAUGAUUAGGUUCAAUCUUUCAGUGGCAGGCCAGCUAAACUUUCUAUAGUUUAAUGAUUAGCUGUGGUUAUGAU`, “RBNS enrichment (R)” read 0.503.
For `UGGCUGCCCUUCUCAUUUAAGGACAUGAGUUCACUGGAGUAUUACUCAAAAAGUCUGUGGUUCAUUUCCAGUAUUGUGAAUAUUUAGUUUAUGUGGCCGUUUCUUUGUUU`, “RBNS enrichment (R)” read 0.441.

Set 3 — technique: universal PBM; molecule type: double-stranded DNA, one strand shown; medium: in vitro; tested at: not given; direction: higher = stronger binding
Target: Sal-like protein 4, full length isoform B (SALL4, Homo sapiens, UniProt Q9UJQ4-2, residues 1-616)
Notes: 8-mer, flanks averaged, mean of replicates
With `GCACCAAC` the E-score was -0.289.
`AAACACCT` has an E-score of 0.0385.
For `CTGACGTA`, the E-score was -0.132.
`AGAGCCAG` gave an E-score of -0.299.
`AGCGCGGC` has an E-score of -0.27.
With `CAATCATA` the E-score was 0.35.
The E-score of `ACGCAACT` is reported as -0.0944.

Mixed results
For `PhoQ, residues 284 288 289 292 302 303 SLANKL`, the fold induction was 9.23 (PhoP, residues 12 14 15 18 19 NQGLL (Escherichia coli, UniProt P23836); Sort-seq, measured: YFP reporter; E. coli; PhoQ-PhoP variant library, added: 10 µM Mg2+; reference: high Mg2+ state, higher = stronger signaling).

Some of these lines once more (set 1):
`F103A` — result for “relative binding score”: -2.78%.
For `K54S`, “relative binding score” read -0.492%.
`S27Q`: “relative binding score” 2.36%.
`E125V`: “relative binding score” 48.9%.
